Measurements of several laboratories.
± gives the spread as reported.
PTPN2: Tyrosine-protein phosphatase non-receptor type 2 (PTPN2, Homo sapiens, UniProt P17706)
Sequence of UniProt P17706 (whole entry, looked up): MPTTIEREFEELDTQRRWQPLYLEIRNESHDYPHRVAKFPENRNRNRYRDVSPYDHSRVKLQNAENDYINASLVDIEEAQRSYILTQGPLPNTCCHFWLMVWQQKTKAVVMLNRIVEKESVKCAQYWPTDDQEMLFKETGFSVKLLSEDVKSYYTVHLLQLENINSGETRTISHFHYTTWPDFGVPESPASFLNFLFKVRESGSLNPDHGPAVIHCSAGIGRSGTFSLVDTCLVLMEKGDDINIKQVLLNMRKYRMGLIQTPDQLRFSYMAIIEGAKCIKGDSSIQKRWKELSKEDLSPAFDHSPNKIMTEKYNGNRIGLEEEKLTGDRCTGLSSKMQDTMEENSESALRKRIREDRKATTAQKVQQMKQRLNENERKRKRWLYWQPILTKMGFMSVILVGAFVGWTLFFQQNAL
CatSper channel complex: CatSper channel complex (Homo sapiens, UniProt Q7RTX7+Q86XQ3+Q8NEC5+Q96P56)
Sequence of UniProt Q86XQ3 (whole entry, looked up): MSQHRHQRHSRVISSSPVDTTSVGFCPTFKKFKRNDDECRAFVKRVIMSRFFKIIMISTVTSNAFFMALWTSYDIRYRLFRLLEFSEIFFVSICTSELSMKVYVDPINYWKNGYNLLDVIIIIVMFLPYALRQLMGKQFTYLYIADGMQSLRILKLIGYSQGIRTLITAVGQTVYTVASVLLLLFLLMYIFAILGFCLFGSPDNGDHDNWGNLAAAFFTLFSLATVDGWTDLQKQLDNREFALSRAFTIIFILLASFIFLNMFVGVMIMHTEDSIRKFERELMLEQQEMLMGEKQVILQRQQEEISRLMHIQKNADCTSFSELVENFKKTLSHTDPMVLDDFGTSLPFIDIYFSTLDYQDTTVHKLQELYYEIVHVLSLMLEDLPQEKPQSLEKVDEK
Sequence of UniProt Q96P56 (whole entry, looked up): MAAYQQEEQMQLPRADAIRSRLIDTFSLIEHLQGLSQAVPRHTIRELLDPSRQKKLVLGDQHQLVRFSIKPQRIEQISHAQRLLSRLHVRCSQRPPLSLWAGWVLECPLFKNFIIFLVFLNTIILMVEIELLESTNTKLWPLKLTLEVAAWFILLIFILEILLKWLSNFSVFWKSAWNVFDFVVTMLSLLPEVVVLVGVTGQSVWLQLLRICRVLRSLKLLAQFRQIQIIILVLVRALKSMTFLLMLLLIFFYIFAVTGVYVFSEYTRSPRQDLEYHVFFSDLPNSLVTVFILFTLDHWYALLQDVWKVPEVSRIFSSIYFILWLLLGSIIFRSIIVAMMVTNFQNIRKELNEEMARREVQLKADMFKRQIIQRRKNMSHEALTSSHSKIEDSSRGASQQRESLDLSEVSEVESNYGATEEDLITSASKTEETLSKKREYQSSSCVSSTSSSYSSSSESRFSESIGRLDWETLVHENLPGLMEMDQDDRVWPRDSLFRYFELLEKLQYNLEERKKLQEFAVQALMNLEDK
Sequence of UniProt Q7RTX7 (whole entry, looked up): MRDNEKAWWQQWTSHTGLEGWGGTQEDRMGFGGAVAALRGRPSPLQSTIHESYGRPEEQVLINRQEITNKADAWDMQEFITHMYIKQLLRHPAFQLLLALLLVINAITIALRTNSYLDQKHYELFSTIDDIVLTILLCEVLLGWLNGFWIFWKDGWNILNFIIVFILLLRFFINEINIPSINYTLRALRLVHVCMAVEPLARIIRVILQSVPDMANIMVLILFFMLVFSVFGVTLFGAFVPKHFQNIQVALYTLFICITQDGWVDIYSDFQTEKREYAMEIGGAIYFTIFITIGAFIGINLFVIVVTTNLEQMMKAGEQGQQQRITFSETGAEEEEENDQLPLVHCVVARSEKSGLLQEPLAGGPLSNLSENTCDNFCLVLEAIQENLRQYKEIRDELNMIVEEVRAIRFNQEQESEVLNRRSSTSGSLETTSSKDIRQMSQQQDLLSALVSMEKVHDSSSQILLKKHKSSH
Sequence of UniProt Q8NEC5 (whole entry, looked up): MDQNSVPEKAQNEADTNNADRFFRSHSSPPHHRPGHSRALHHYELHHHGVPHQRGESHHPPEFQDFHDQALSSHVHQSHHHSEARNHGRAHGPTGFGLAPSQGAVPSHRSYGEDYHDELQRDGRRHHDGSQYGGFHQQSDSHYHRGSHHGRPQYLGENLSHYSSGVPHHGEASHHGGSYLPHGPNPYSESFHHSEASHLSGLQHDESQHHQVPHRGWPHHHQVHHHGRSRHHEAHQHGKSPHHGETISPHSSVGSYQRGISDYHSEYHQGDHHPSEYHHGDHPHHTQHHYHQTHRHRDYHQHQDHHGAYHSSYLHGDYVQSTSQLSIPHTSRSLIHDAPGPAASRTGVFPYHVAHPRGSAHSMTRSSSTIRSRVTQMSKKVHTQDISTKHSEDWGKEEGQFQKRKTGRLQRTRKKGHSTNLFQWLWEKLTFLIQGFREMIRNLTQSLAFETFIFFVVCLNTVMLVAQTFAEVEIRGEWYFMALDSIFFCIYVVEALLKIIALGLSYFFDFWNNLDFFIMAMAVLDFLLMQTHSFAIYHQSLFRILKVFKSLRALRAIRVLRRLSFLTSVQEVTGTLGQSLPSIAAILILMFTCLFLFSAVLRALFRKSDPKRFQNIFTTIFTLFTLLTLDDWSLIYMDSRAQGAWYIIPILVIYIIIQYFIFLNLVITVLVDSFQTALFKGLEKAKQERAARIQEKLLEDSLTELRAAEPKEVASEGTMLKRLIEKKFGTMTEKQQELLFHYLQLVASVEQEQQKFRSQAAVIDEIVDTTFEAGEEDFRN
Ephx2: Bifunctional epoxide hydrolase 2 (Ephx2, Rattus norvegicus, UniProt P80299)
Sequence of UniProt P80299 (whole entry, looked up): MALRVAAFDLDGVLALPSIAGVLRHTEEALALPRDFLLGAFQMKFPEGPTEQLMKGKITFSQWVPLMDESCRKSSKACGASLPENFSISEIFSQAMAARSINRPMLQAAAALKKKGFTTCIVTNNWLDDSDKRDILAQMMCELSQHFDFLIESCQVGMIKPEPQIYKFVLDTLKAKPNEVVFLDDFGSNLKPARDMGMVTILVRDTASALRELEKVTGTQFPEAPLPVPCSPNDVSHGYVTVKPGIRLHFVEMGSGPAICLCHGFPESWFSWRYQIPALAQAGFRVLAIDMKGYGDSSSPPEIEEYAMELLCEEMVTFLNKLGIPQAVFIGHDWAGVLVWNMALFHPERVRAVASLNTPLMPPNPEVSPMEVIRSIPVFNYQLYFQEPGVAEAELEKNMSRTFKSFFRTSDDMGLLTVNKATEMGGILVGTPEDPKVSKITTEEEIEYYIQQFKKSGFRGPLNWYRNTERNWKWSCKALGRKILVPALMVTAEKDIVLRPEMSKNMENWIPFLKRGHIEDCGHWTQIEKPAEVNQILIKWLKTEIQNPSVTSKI
CHRM2: Muscarinic acetylcholine receptor M2 (CHRM2, Homo sapiens, UniProt P08172)
Sequence of UniProt P08172 (whole entry, looked up): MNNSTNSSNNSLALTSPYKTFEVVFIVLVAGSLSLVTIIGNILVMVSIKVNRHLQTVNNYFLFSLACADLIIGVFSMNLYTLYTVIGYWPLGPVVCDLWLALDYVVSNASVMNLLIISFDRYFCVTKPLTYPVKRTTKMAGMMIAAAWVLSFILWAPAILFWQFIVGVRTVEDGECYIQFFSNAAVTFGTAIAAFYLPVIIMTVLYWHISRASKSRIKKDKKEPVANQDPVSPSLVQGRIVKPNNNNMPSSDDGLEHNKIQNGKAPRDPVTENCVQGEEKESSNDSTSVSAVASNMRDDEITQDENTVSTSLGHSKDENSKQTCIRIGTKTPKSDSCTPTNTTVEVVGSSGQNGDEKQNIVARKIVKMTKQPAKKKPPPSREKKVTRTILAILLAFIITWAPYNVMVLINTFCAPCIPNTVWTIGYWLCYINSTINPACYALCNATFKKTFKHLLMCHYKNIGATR
KDM1A: Lysine-specific histone demethylase 1A (KDM1A, Homo sapiens, UniProt O60341)
MC5R: Melanocortin receptor 5 (MC5R, Homo sapiens, UniProt P33032)
Sequence of UniProt P33032 (whole entry, looked up): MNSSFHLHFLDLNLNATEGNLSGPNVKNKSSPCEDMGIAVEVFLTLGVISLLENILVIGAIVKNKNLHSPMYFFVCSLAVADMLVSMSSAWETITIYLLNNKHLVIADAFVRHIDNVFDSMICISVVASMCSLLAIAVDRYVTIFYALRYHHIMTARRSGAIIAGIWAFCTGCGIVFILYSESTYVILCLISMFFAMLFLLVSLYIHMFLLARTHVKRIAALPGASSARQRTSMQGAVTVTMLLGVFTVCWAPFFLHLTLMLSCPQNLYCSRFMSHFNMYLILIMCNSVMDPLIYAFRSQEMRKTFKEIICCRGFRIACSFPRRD
Sequence of UniProt Q9UKV0 (whole entry, looked up): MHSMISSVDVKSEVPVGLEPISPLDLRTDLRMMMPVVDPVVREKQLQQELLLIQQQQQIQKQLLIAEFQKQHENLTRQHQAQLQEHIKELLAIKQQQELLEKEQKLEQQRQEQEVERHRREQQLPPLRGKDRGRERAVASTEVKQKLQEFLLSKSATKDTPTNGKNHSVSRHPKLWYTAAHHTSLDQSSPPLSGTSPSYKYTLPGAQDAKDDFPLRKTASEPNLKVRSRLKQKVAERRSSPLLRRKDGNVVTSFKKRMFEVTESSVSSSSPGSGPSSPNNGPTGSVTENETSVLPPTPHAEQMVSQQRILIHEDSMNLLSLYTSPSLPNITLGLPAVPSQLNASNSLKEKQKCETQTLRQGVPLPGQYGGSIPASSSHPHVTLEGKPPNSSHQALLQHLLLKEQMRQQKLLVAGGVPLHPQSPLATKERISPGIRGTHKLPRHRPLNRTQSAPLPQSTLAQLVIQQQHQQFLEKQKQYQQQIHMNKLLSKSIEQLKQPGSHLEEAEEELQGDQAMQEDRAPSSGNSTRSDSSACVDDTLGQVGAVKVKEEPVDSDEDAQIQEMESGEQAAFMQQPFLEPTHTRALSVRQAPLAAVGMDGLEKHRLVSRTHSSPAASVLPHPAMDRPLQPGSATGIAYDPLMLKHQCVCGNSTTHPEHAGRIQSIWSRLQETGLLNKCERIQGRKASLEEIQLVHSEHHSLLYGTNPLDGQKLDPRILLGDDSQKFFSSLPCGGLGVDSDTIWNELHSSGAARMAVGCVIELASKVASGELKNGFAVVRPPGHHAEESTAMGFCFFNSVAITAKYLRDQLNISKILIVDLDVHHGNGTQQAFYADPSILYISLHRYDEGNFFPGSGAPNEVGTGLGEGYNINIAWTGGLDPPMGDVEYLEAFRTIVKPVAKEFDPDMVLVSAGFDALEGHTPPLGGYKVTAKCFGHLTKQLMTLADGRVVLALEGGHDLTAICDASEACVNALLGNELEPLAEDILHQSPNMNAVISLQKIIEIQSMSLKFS

SMILES | tested on | test | system | conditions | measurement | result
CCCCCCCCCCCCCCCCC1=C[C@@H](C(=O)O)[C@H]2C(=O)C(C(=O)OC)=C(CCCCCCCCCCCCCCCC)[C@H]2[C@H]1C(=O)OC | PTPN2 | enzyme activity, inhibitor, absorbance | – | – | IC50 | 2.5 µM
O=C(/C=C/c1cccc(Cl)c1)c1nc2cc(Br)ccc2[nH]1 | Cathepsin K (CTSK, Homo sapiens, UniProt P43235) | enzyme activity, inhibitor, fluorescence | – | – | IC50 | 6.67 µM
Cc1cccc(-c2nnc3ccc(N4CCC(C(=O)N5CCCCC5)CC4)nn23)c1 | CatSper channel complex | calcium influx, inhibitor, FLIPR | human sperm | together with: 3 µM progesterone | IC50 | 35 ± 10 µM
O=S(=O)(Nc1cscn1)c1c(F)cc(NCc2c(F)ccc(F)c2CN2CCC2)cc1F | Sodium channel protein type 5 subunit alpha (SCN5A, Homo sapiens, UniProt Q14524) | sodium current, inhibitor, automated patch clamp | – | inactivated state, Vh -60 mV | IC50 | 11.9 µM
CN(C)/C=C/C(=O)c1ccc2[nH]c3ncc(-c4ccc(N5CCN(C)CC5)cc4)cc3c2c1 | ALK tyrosine kinase receptor (ALK, Homo sapiens, UniProt Q9UM73) | enzyme activity, inhibitor, radiometric | – | – | IC50 | 0.14 µM
N/C(=N\O)c1ccc2c(c1)Oc1ccccc1N2Cc1cccc(C(=O)NO)c1 | Histone deacetylase 9 (HDAC9, Homo sapiens, UniProt Q9UKV0) | enzyme activity, inhibitor | – | – | IC50 | 24.9 µM
CCOC(=O)C1CCN(C(=O)c2ccc(NC(=O)NC34CC5CC(C)(CC(C)(C5)C3)C4)cc2)CC1 | Bifunctional epoxide hydrolase 2 (EPHX2, Homo sapiens, UniProt P34913) | enzyme activity, inhibitor | – | – | IC50 | 0.00044 µM
Cc1cccc(S[C@@H]2O[C@H](CO)[C@@H](O)[C@H](O)[C@H]2O)c1 | Sodium/glucose cotransporter 2 (SLC5A2, Homo sapiens, UniProt P31639) | transporter uptake, inhibitor, radiometric | – | – | IC50 | 40 µM
CC12CC3CC(C1)CC(NC(=O)NC14CC5CC(CC(C)(C5)C1)C4)(C3)C2 | Ephx2 | enzyme activity, inhibitor, fluorescence | – | – | IC50 | 0.0031 µM
c1ccc(-c2cc3ccccc3o/c2=N\c2ccc3ccc4cccc5ccc2c3c45)cc1 | Prostaglandin G/H synthase 1 (PTGS1, Ovis aries, UniProt P05979) | enzyme activity, inhibitor | – | – | IC50 | 0.0099 µM
CC(CO)C1CCC2(C)C3=CCC4C5(CCC(OC5=O)C4(C)C)C3=CCC12C (stereo not drawn) | PTPN2 | enzyme activity, inhibitor, absorbance | – | – | IC50 | 7.5 µM
N=C(N)NCCCC(N)C(=O)NCC(=O)NC(CCCNC(=N)NCCCSCC1OC(n2cnc3c(N)ncnc32)C(O)C1O)C(N)=O (stereo not drawn) | Protein arginine N-methyltransferase 7 (PRMT7, Trypanosoma brucei brucei, UniProt Q582G4) | enzyme activity, inhibitor, SAHH-coupled fluorescence | – | together with: SAM and peptide at Km | IC50 | 0.29 ± 0.03 µM
C[C@@H](c1ccn(Cc2ccc(Cl)c(Cl)c2)n1)[C@](O)(Cn1cnnn1)c1ccc(F)cc1F | Cytochrome P450 1A2 (CYP1A2, Homo sapiens, UniProt P05177) | enzyme activity, inhibitor | human, liver microsomes | – | IC50 | 48.5 µM
CCC(=O)NC1CN(CCCCC2CCN(CC(=O)N3c4ccccc4NC(=O)c4ccccc43)CC2)CCN(CCCOc2nsnc2C2=CCCN(C)C2)C1 (stereo not drawn) | CHRM2 | inositol phosphate, antagonist | – | – | Kb | 0.0661 µM
CN1C(=O)[C@@H](Cc2ccc(O)cc2)NC(=O)CNC(=O)[C@H](Cc2ccc3ccccc3c2)NC(=O)[C@H](CCCNC(=N)N)NC(=O)[C@H]1CCCNC(=O)c1ccc(CNC(=O)CN2CCN(CC(=O)O)CCN(CC(=O)O)CCN(CC(=O)O)CC2)cc1 [gallium-68 labelled] | – | extrapolated to adult male | C57BL/6 mice, lungs | – | absorbed dose coefficient | 0.00704 mGy/MBq
[64Cu+2].c1ccc(CNCc2ccc(CN3CCCN4CCNCCCN(CC4)CC3)cc2)nc1 | CXCR4 | – | NOD/SCID mouse, U87 and U87-stb-CXCR4 xenografts, spleen | iv, 240 min, ex vivo | tissue uptake | 15.2 ± 1.8 %ID/g
O=C(Nc1ccc(-c2nc(-c3ccccc3)cs2)cc1)C1CCN(Cc2ccccc2Cl)CC1 | Ephx2 | enzyme activity, inhibitor, fluorescence | – | pH 7.4, with preincubation | IC50 | 0.205 µM
Cc1cccc(Cn2c(CN3CCN(C(=O)C4CC4)CC3)nc3c2c(=O)n(C)c(=O)n3C)c1 | Aldehyde dehydrogenase, dimeric NADP-preferring (ALDH3A1, Homo sapiens, UniProt P30838) | enzyme activity, inhibitor | – | – | IC50 | > 57 µM
COc1ccc(CCCN[C@@H]2CCC[C@H]2CN[C@H]2CCC[C@@H]2CNCCCCN[C@@H]2CCC[C@H]2CN)cc1 | KDM1A | enzyme activity, inhibitor | – | – | Ki | 6.4 µM
C[C@H](CCC(=O)NCCOCCOCCOCCOCCOCCOCCOCCOCCOCCNC(=O)c1ccc2c(-c3ccc(C(=O)O)cc3)nn(C(=O)c3c(Cl)cccc3C(F)(F)F)c2c1)[C@H]1CC[C@H]2[C@@H]3CC=C4C[C@@H](O)CC[C@]4(C)[C@H]3CC[C@]12C | Nuclear receptor ROR-gamma (RORC, Homo sapiens, UniProt P51449) | biochemical | – | – | IC50 | 0.058 ± 0.007 µM
CSCC[C@H](NC(=O)[C@@H]1CCCN1C(=O)CNC(=O)[C@H](CCCCN)NC(=O)[C@H](Cc1c[nH]cn1)NC(=O)[C@H](CO)NC(=O)[C@H](CC(C)C)NC(=O)[C@H](CCCNC(=N)N)NC(=O)[C@@H]1CCCN1C(=O)[C@H](CCCNC(=N)N)NC(=O)[C@H](CCC(N)=O)NC(=O)[C@H](CCCNC(=N)N)NC(=O)[C@H](CCCNC(=N)N)NC(=O)[C@H](Cc1ccccc1)NC(=O)[C@H](CCCCN)NC(=O)[C@H](CCCNC(=N)N)NC(=O)[C@H](CCCNC(=N)N)NC(=O)CNC(=O)CNC(=O)[C@H](CCC(N)=O)NC(=O)[C@H](Cc1c[nH]c2ccccc12)NC(=O)[C@@H]1CCCN1C(=O)CNC(=O)[C@@H]1CCCN1C(=O)CNC(=O)[C@H](CC(N)=O)NC(=O)[C@H](CCCNC(=N)N)NC(=O)[C@H](CO)NC(=O)CNC(=O)[C@H](CCCNC(=N)N)NC(=O)[C@@H]1CCCN1C(=O)[C@H](CCC(N)=O)NC(=O)[C@@H](NC(=O)[C@@H](N)CC(C)C)C(C)C)C(=O)N1CCC[C@H]1C(=O)N[C@@H](Cc1ccccc1)C(=O)O | Apelin receptor (APLNR, Homo sapiens, UniProt P35414, S339A) | β-arrestin-1 recruitment, agonist, BRET | HEK293 | 15 min | EC50 | 0.00972 ± 0.00085 µM

SMILES | tested on | test | system | conditions | measurement | result
N[C@@H](CNC(=O)c1ccc2[nH]c(C(=O)c3ccc(O)cc3)nc2c1)C(=O)O | GTPase KRas (KRAS, Homo sapiens, UniProt P01116) | enzyme activity, inhibitor | – | – | IC50 | 1760 µM
N=C(N)NCCC[C@@H]1NC(=O)[C@H](Cc2c[nH]c3ccccc23)NC(=O)[C@@H](CC2CCCCC2)NC(=O)[C@@H]2CCCN2C(=O)[C@@H](NC(=O)CCc2ccccc2)CCCNC1=O | – | – | C57BL/6J mouse, plasma plasma | subcutaneous, 1 mg/kg single dose | MRT(0-inf) | 1.07 h
O=C(Nc1ccc(-c2nc(-c3ccccc3)cs2)cc1)C1CCN(Cc2ccccc2[N+](=O)[O-])CC1 | Fatty-acid amide hydrolase 1 (FAAH, Homo sapiens, UniProt O00519) | enzyme activity, inhibitor, fluorescence | – | pH 8, with preincubation | IC50 | 0.243 µM
Cc1[nH]c2ccccc2c1C(c1ccc([N+](=O)[O-])cc1)C(C#N)C#N (stereo not drawn) | Cocaine esterase (CES2, Homo sapiens, UniProt O00748) | enzyme activity, inhibitor | human liver microsomes | pH 7.4, 37 °C, together with: fluorescein diacetate | IC50 | 7.47 ± 0.77 µM
C=C(CC(O)C(=O)O)C(=O)O (racemic) | Methylcytosine dioxygenase TET3 (TET3, Homo sapiens, UniProt O43151) | enzyme activity, 5hmC ELISA | – | recombinant protein | IC50 | 8.8 µM
CN1CCC=C(c2nsnc2OCCCN2CCN(CCCCC3CCN(CC(=O)N4c5ccccc5NC(=O)c5ccccc54)CC3)CC2)C1 | CHRM2 | inositol phosphate, antagonist | – | – | Kb | 0.0214 µM
CN(C(=O)c1ccn2ncc(-c3ccc(C(N)=O)cc3)c2c1)c1ccc(C#N)cn1 | Gastrin/cholecystokinin type B receptor (CCKBR, Homo sapiens, UniProt P32239) | ligand displacement | – | – | IC50 | > 30 µM
CCN(CC)CCCSC(=S)N1CCN(C(=O)/C=C/c2coc3ccc(OC)cc3c2=O)CC1 | tomato spotted wilt virus | viral infection, half-leaf method | Nicotiana glutinosa | 500 µg/mL | protective effect | 57.5 ± 5.6%
N=C(N)NCCC[C@H](NC(=O)[C@H](CC(=O)O)NC(=O)[C@@H]1CSCCCC(=O)NCC(=O)N[C@@H](Cc2c[nH]cn2)C(=O)N[C@H](Cc2ccccc2)C(=O)N[C@@H](CCCNC(=N)N)C(=O)N[C@H](Cc2c[nH]c3ccccc23)C(=O)N1)C(=O)N[C@@H](Cc1ccccc1)C(=O)NCC(N)=O | MC5R | binding | – | – | IC50 | 1.3 µM
O=C(Nc1ccccc1)N1CCN(c2cccc(C(F)(F)F)c2)CC1 | CatSper channel complex | calcium influx, inhibitor, FLIPR | human sperm | together with: 3 µM progesterone | IC50 | > 100 µM
CCCCSC(=S)N1CCN(C(=O)/C=C/c2coc3ccccc3c2=O)CC1 | tomato spotted wilt virus | viral infection, half-leaf method | Nicotiana glutinosa | 500 µg/mL | protective effect | 43.3 ± 2.1%
C[C@@H]1NC(=O)[C@@H]2CCCN2C(=O)[C@H](CCC(N)=O)NC(=O)C[C@@H](CCc2ccccc2)NC(=O)[C@@H]2CCCCN2C(=O)C(=O)C(C)(C)COC(=O)[C@@H](C)NC1=O | Peptidyl-prolyl cis-trans isomerase FKBP1A (FKBP1A, Homo sapiens, UniProt P62942) | binding, fluorescence polarization competition | – | crude library samples | IC50 | > 100 µM
CCCCCCOc1ccc(C(=O)OCCN2CC=CCC2)cc1 | CHRM2 | inositol phosphate accumulation, antagonist, Schild analysis | CHO co-expressing G15 | together with: carbachol | Kb | 1.86 µM
C[C@@H]1CCN(c2nc3ccc(Cl)cc3o2)CCN1S(=O)(=O)c1ccccc1F | Orexin receptor type 2 (HCRTR2, Homo sapiens, UniProt O43614) | calcium signal, antagonist, fluorescence | – | – | IC50 | 3.87 µM
C#CCSc1nc(Nc2ccccc2Cl)c(C#N)c(-c2ccccc2)n1 | KDM1A | enzyme activity, inhibitor, fluorescence | – | – | IC50 | > 64 µM
CCCCCCOc1ccc(C(=O)OCC[N+]2(C)CC=CCC2)cc1 (stereo not drawn) | CHRM2 | inositol phosphate accumulation, antagonist, Schild analysis | CHO co-expressing G15 | together with: carbachol | Kb | 2 µM
Cc1cccc(-c2cccc(C)n2)n1.Cc1cccc(-c2cccc(C)n2)n1.[Cl-].[Cl-].[Ru+2].c1ccc(-c2ccnc3c2ccc2c(-c4ccccc4)ccnc23)cc1 | – | plasmid DNA binding, agarose gel electrophoresis | pUC19 plasmid DNA | pH 7.4, protected from light | EC50 | 62.5 to 125 µM
CC(C)CCC[C@@H](C)[C@H]1CC[C@H]2[C@@H]3CC=C4C[C@@H](OS(=O)(=O)O)CC[C@]4(C)[C@H]3CC[C@]12C | Coagulation factor IX (F9, Homo sapiens, UniProt P00740) | enzyme activity, inhibitor, absorbance | – | pH 7.4 | IC50 | > 3220 µM
CC(C)C[C@@H](/C=C/S(C)(=O)=O)NC(=O)[C@H](CC(C)C)NC(=O)[C@@H](NC(=O)N[C@H](C(=O)NCc1ccccc1)C(C)C)C(C)C | Proteasome subunit beta type-6 (PSMB6, Homo sapiens, UniProt P28072) | active site labelling, inhibitor, probe competition gel | HEK-293T cell lysate | 1 h, 37 °C, together with: activity-based probe 0.5 µM | IC50 | > 50 µM
N=C(N)NCCC[C@H](NC(=O)[C@H](CC(=O)O)NC(=O)[C@@H]1CSCCCC(=O)NCC(=O)N[C@@H](Cc2c[nH]cn2)C(=O)N[C@H](Cc2ccccc2)C(=O)N[C@@H](CCCNC(=N)N)C(=O)N[C@H](Cc2c[nH]c3ccccc23)C(=O)N1)C(=O)N[C@@H](Cc1ccccc1)C(=O)NCC(N)=O | MC5R | ligand displacement, radioligand | – | – | IC50 | 1 µM
O=C1N(CN2CCN(c3ccccc3)CC2)c2ccccc2C12OCCCO2 | 5-hydroxytryptamine receptor 1A (HTR1A, Homo sapiens, UniProt P08908) | ligand displacement, radioligand | – | – | IC50 | 0.244 µM

Repeated from above:
SMILES | tested on | test | system | conditions | measurement | result
O=C(Nc1ccccc1)N1CCN(c2cccc(C(F)(F)F)c2)CC1 | CatSper channel complex | calcium influx, inhibitor, FLIPR | human sperm | together with: 3 µM progesterone | IC50 | > 100 µM
CCCCSC(=S)N1CCN(C(=O)/C=C/c2coc3ccccc3c2=O)CC1 | tomato spotted wilt virus | viral infection, half-leaf method | Nicotiana glutinosa | 500 µg/mL | protective effect | 43.3 ± 2.1%
C[C@@H]1NC(=O)[C@@H]2CCCN2C(=O)[C@H](CCC(N)=O)NC(=O)C[C@@H](CCc2ccccc2)NC(=O)[C@@H]2CCCCN2C(=O)C(=O)C(C)(C)COC(=O)[C@@H](C)NC1=O | Peptidyl-prolyl cis-trans isomerase FKBP1A (FKBP1A, Homo sapiens, UniProt P62942) | binding, fluorescence polarization competition | – | crude library samples | IC50 | > 100 µM
